Measured values pooled from the literature.
Lines come from different studies, so protocols differ. ± marks the error that the study gave.

C=CC(=O)Nc1cc(Nc2nccc(-c3cn(C)c4ccccc34)n2)c(OC)cc1N(C)CCN(C)C
IC50 (BaF3; cell growth or viability; 72 h): 2840 nM

CC(=O)[O][Pt]([NH2])([NH2])([Cl])([Cl])[O]C(=O)C(C)c1ccc(CC(C)C)cc1 (stereo not shown)
IC50 (LoVo; cell growth or viability, MTT; 72 h): 1250 nM

O=C(NC1CCOCC1)c1ccc(C2CCCCC2)cc1
hepatic clearance (liver microsome stability; mouse liver microsomes; 1 µM): 83 mL/min/kg

COc1ccc(CNC[C@@](O)(COCc2ccccc2)[C@@H]2CC[C@@H](C)C[C@H]2OCc2ccccc2)cc1
IC50 (A2780; cell growth or viability, MTT; 72 h): 3790 nM

CNS(=O)(=O)Nc1nccc(Cc2c(C)c3ccc(Oc4ncccc4F)cc3oc2=O)c1F
IC50 (MINO; cell viability, CellTiter-Glo; 7 days): 12.7 nM

COc1ccccc1CNC[C@](O)(COCc1ccccc1)[C@@H]1CC[C@@H](C)C[C@H]1OCc1ccccc1
IC50 (A2780; cell growth or viability, MTT; 72 h): 2190 nM

CN(C)c1ccc(/C=C/c2cc(/C=C3\Sc4ccccc4N3CCCN3CCCC3)c3ccccc3[n+]2C)cc1
IC50 (16HBE; cell growth or viability, MTT; 36 h): 8490 nM

C=CC(=O)N1CCCC(n2c(=O)c3ncccc3n(Cc3ccc(Oc4ccccc4)cc3)c2=O)C1 (stereo not shown)
IC50 (OCI-LY19; cell growth or viability, MTT; 72 h): 150 nM

CCN(C(=O)c1cc(F)ccc1Oc1nncnc1N1CCC2(C1)CN([C@H](CCCN(C)CCOC)C(C)C)C2)C(C)C
IC50 (OCI-AML-3 (NPM1c); inhibitor, QuantiGene multiplex, item: MEIS1 mRNA): 141 ± 80 nM

COc1cc(-c2cc(C(C)=O)n3ccccc23)cc(OC)c1Cn1ccnc1
IC50 (MOLM16; cell growth or viability, ATP luminescence): 450 nM

O=C(N/N=C/c1cc[n+](CC2CC2)c2ccccc12)c1ccc2ccc(C(=O)N/N=C/c3cc[n+](CC4CC4)c4ccccc34)nc2n1
ΔTm (22CTA telomeric G4-DNA antiparallel; FRET melting; 1 µM, K10 buffer, DNA 0.2 µM): 20.6 ± 0.4 °C

Cc1cc(C)cc(NC(=O)N(Cc2ccc(C(=O)NO)cc2)OCc2ccccc2)c1
IC50 (SUP-B15 B-ALL; cell viability, CellTiter-Glo; 72 h): 3670 ± 62 nM

Cc1ccc2c(Cl)cc(Cl)c([O-])c2n1.Cc1ccc2c(Cl)cc(Cl)c([O-])c2n1.[Co+2].c1ccc2nc3c4cccnc4c4ncccc4c3nc2c1
IC50 (BEL-7404; cell growth or viability, MTT; 48 h): 250 nM

CC[n+]1cccc2cc(/C=N/NC(=O)N/N=C/c3ccc4c(ccc[n+]4CC)c3)ccc21
ΔTm (22CTA telomeric G4-DNA antiparallel; FRET melting; 1 µM, K10 buffer, DNA 0.2 µM): 6.5 ± 0.8 °C

COc1cc(-c2cn(C)c(=O)c3cnccc23)c(OC)cc1CN(C)C
IC50 (MOLM16; cell growth or viability, ATP luminescence): 50000 nM

Cn1ncc(-c2ccc3c(=O)[nH]nc(CN)c3c2)c1-c1c(F)c(Cl)cc(OC2CC2)c1C#N
IC50 (SW1990; cell viability, inhibitor, CellTiter-Glo; 120 h, baseline-subtracted): 300 nM

CN1CCC(N[C@@H]2CCc3[nH]c4c(C(N)=O)ccc(-c5ccccc5Cl)c4c3C2)CC1
IC50 (Pfeiffer; cell growth or viability): 14.8 nM

COc1cc(C(=O)N/N=C/c2cccc3ccccc23)cc(OC)c1OC
IC50 (HPBALL; cell growth or viability, MTT; 48 h): 85.8 nM

Cc1c(C)c2cccnc2c2ncccc12
IC50 (BEL-7404; cell growth or viability, MTT; 48 h): > 50000 nM

CC(C)c1ccc(N(C)c2ccc3c(c2)OCC[C@H]3CNc2cnccc2C(=O)O)cc1
IC50 (TE-11; cell viability, CellTiter-Glo; 7 days): 4.28 nM

NC(=O)c1ccc(-c2ccccc2Cl)c2c3c([nH]c12)CCC(N)C3 (stereo not shown)
IC50 (MINO; cell growth or viability; 96 h): 24 nM

CCCC(=O)Oc1c(C)c(OC)c2c(c1C)OC(=O)[C@@H](CC)[C@]2(O)/C=C/c1ccccc1 (racemic)
IC50 (HT-29; cell growth or viability, SRB; 72 h): > 50000 nM

[BH3-][P+]1(c2ccccc2)CCC(=O)CC1
IC50 (HaCaT; cell growth or viability, MTT; 72 h): > 100000 nM

C=CC(=O)N1CCC[C@@H](n2nc(-c3ccc(Oc4ccccc4)cc3)c3c(N)ncnc32)C1
IC50 (TMD8 ABBV-105-resistant; cell viability, CellTiter-Glo; 4 days, 48 h drug withdrawal): 186 nM

Cc1ccc2c(Cl)cc(Cl)c([O-])c2n1.Cc1ccc2c(Cl)cc(Cl)c([O-])c2n1.Clc1ccnc2c1ccc1c(Cl)ccnc12.[Co+2]
IC50 (BEL-7404; cell growth or viability, MTT; 48 h): 3860 nM

O=C(C[Se]C(=O)c1ccccc1Nc1cccc(C(F)(F)F)c1)Nc1cccc(C(F)(F)F)c1
IC50 (HaCaT; cell growth or viability, MTS; 48 h): 21700 nM

CC(C)=CC1OC(C)(C)C2C=C3C(=O)C(Cl)=CC(O)C3C3C(O)C4OC4C(=O)C132 (stereo not shown)
IC50 (TE-12; cell viability, MTS): 5440 ± 290 nM

O=C(NCc1cc(F)cc(F)c1)[C@@]1(O)CCN(c2ccc3[nH]ccc3c2)C1=O
IC50 (MAXF 1384; colony formation): 45 nM

C/C=C(/C)C(=O)OC[C@H]1[C@@H](Cc2ccc(C(C)(C)C)cc2)CO[C@@H]1c1ccc(F)cc1
IC50 (rat VSMC; cell growth or viability, resazurin; 48 h): 4900 nM

C[C@@H]1CC[C@@H]([C@@](O)(CNCc2ccc(F)cc2)COCc2ccccc2)[C@H](OCc2ccccc2)C1
IC50 (A2780; cell growth or viability, MTT; 72 h): 4280 nM

CO[C@@H](C[C@H]1C(C)=CC[C@@H]2[C@]3(C)C[C@H](O[C@@H]4O[C@@H](C)[C@H](O)[C@@H](O)[C@H]4O)[C@@H](O)C(C)(C)[C@H]3CC[C@]21C)[C@H](N)C(=O)O
IC50 (3T3 fibroblasts; cell viability, CCK-8; 72 h): > 10000 nM

O=CCNCCOn1c(=O)n(OCCNCCO)c(=O)n(OCCNCCOn2c(=O)n(OCCNCCO)c(=O)n(OCCNCCO)c2=O)c1=O
IC50 (A549; cell growth or viability, MTT; 48 h): 9.79 µg/mL

c1ccc(-c2ccnc3c2ccc2c(-c4ccccc4)ccnc23)cc1
IC50 (BEL-7404; cell growth or viability, MTT; 48 h): > 50000 nM

CS(=O)(=O)c1ccc(-c2ccc([C@H]3[C@@H](F)[C@@H](F)C[C@@H](F)[C@H]3F)cc2)cn1
hepatic clearance (hepatocyte stability; cryopreserved human hepatocytes; 1 µM): 6.2 mL/min/kg

CC(=O)Oc1ccccc1C(=O)[O][Pt]([NH2])([NH2])([Cl])([Cl])[O]C(C)=O
IC50 (LoVo; cell growth or viability, MTT; 72 h): 1110 nM

CC(CCC(=O)OCc1cccc(CN(C(=O)OCc2ccc(B3OC(C)(C)C(C)(C)O3)cc2)[c-]2cccc2)c1)C1CCC2C3C(O)CC4CC(O)CCC4(C)C3CC(O)C12C.[Fe+2].c1cc[cH-]c1 (stereo not shown)
IC50 (A2780; viability, MTT; 96 h): 6600 ± 900 nM

CCOc1cncc(-c2ccc(NC(=O)C3(c4ccnc(NS(=O)(=O)C5CC5)n4)CCOCC3)nc2)n1
IC50 (A 172; cell growth or viability, ATP luminescence; 72 h): 2230 nM

For quick reference, copied from above:
Cc1c(C)c2cccnc2c2ncccc12
IC50 (BEL-7404; cell growth or viability, MTT; 48 h): > 50000 nM

C[C@@H]1CC[C@@H]([C@@](O)(CNCc2ccc(F)cc2)COCc2ccccc2)[C@H](OCc2ccccc2)C1
IC50 (A2780; cell growth or viability, MTT; 72 h): 4280 nM
